# Experimental data gathered from unrelated publications.
# Each numbered part is a random draw from the data of one study; scales do not carry over between parts.

# Study 1 — method: RNA Bind-n-Seq; form: RNA; matrix: in vitro; concentration: 365 nM; reference: no-protein control; direction: higher = stronger binding
# Target: RNA binding protein fox-1 homolog 2, RRM domain, GST-SBP tag (RBFOX2, Homo sapiens, UniProt O43251-10, residues 100-194)
# Setting: natural RNA segment, single round, ends assumed
# All sequences stand within: GGGAGUUCUACAGUCCGACGAUC … UGGAAUUCUCGGGUGCCAA
# Construct (chain): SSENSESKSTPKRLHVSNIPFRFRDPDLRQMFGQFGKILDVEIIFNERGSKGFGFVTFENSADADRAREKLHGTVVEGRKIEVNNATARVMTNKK
Oligonucleotide,RBNS enrichment (R)
AACUGAUGUUCUGUGUCUUCACACCCUGGCAUGACAGUUACGUGUGGUCAGCCCGCUCCCCAGGCCCGUCCCUGCCGCCGCCAGGUGUGGGCUCUAGGCAGGCCGACAAG,0.281
AGAAAUACAGAUAUAUCUUAAAAAAAAAAAAGCAUUUUGUAUUAAAGAAUUUAAUUCUGAUCUCAAAGCUCCUCUUGGUUUCUCCUUCUCCAUUGAAUCCUUGCUCUAGA,1.64
AGAUGCUUGAAAUUUAACACUUUUCACUUGGUUCUUAUACUGAAUGCCGACUCUGCUCUGUGUUAGAGAUAUGAAAUGGUGUUUGAUACUGUUUGAGACAUUAUGGAGAG,0.559
UUGCCUCCUUGGCUUCUACUAGAGCAAAAUCUGCUGCCAAGUCAGCCUGGUUUCUGGUUGUGUUCUUCACUCAGGCCUCCAUGGGCAACAAUGGUUUCAGGAGAACUGUU,0.239
UUAACAUUUAGUAAAGUGAUGUAGAUCCAAUGUCAGGAAAGGAAGGACUGUGUUACUGUGCCUCCUCUGACUCAUGUGCUUUUCAGCAUAAUAGACUUAUUUAAUAUUAA,0.623

# Study 2 — method: protein-binding microarray; form: double-stranded DNA, one strand shown; matrix: in vitro; concentration: not given; direction: higher = stronger binding
# Target: TATA-box-binding protein 1 (TBP1, Arabidopsis thaliana, UniProt P28147, residues 1-200, full length assumed)
# Setting: k-mer, scored over probes, only values ≥0.25
# Residues (chain): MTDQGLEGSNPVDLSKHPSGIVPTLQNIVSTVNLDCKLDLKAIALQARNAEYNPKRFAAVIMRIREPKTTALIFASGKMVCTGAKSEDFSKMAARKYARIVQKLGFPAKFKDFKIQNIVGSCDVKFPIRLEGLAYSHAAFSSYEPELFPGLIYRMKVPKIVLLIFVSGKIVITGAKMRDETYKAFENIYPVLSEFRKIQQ
Oligonucleotide,E-score
GATTTTA,0.258
TAAATGA,0.365
TGATTAA,0.351
AAAACGT,0.271

# Mixed results
Molecule,target or system,assay,test system,conditions,how to read,quantity,result
"H2BC20P (Homo sapiens, UniProt Q6DN03)","H2AC21 (Homo sapiens, UniProt Q8IUE6)",cross-linking MS,,hits only,,interaction screen,cross-linked
"PhoQ, residues 284 288 289 292 302 303 SQSLSM","PhoP, residues 12 14 15 18 19 NMSFL (Escherichia coli, UniProt P23836)","Sort-seq, item: YFP reporter",E. coli,"PhoQ-PhoP variant library, added: 10 µM Mg2+","reference: high Mg2+ state, higher = stronger signaling",fold induction,13
